Published values from different studies.
Several values in a cell are separate wells, animals, samples, runs or records.
Target: Casein kinase I isoform delta (CSNK1D, Homo sapiens, UniProt P48730)

c1ccc2c(Nc3cc(C4CCC4)[nH]n3)nc(Nc3ccc4nc[nH]c4c3)nc2c1  remaining activity (enzyme activity, inhibitor; 0.25 µM): 3%
Nc1ncc(-c2cc(-c3cnn(CC(F)(F)F)c3)ncc2F)nc1C(=O)NC1CNCC(F)C1 (stereo not shown)  remaining activity (enzyme activity; 1 µM; baseline: DMSO control): 83.7%
C=CC(=O)N1Cc2nc(-c3cc(-c4cc(Cl)cnc4Cl)c(F)cc3F)n(-c3ccncn3)c2C1  inhibition (cell-free assay, inhibitor; 1 µM): 5%
CN1CCN(Cc2ccc(-c3ccc(CO[C@H]4CCC[C@@H]4NC(=O)c4cc(-c5cnn(C)c5)cnc4N)cc3)cc2)CC1  inhibition (enzyme activity, inhibitor; 0.1 µM): 1%
CNC(=O)C[C@H](Cc1ccc(C#N)cc1)NC(=O)c1cc(-c2ccc(CN[C@H](C)c3ccc(C)cc3)o2)ccc1Cl  activity vs control (enzyme activity, inhibitor; 1 µM): 92%
C=CC(=O)N1CCCC(n2c(=O)c3ncccc3n(Cc3ccc(Oc4ccccc4)cc3)c2=O)C1 (stereo not shown)  remaining binding (cell-free assay, competition with immobilised ligand; 1 µM): 100%
CNC1C[S+]2CC[S+]3CC[S+](C1)[Ru-4]321([N]=C=S)[n]2c3ccc(OC)cc3c3c4c(c5cc(F)c[n+]1c5c32)C(=O)NC4=O (stereo not shown)  remaining binding (KinomeScan; 0.1 µM; baseline: untreated): 72%
C=CC(=O)N1CCc2ccc(-n3c(=O)ccc4cnc5ccc(-c6cnn(C)c6)cc5c43)cc21  remaining binding (KINOMEscan; 1 µM; baseline: DMSO control): 90%
COc1cc(Nc2nc(C)cc(-c3cnn4nc(OC)ccc34)n2)cc(C(F)(F)F)c1  remaining activity (inhibitor; 1 µM; baseline: control): 90%
COc1ccc(NC(=O)Nc2ccc3c(c2)C(=O)N(C(C)CO)CC(C)C(CN(C)Cc2ccc4c(c2)OCO4)O3)cc1 (stereo not shown)  remaining activity (kinase activity, KinaseProfiler; 0.03 µM, species human; baseline: control): 124%
NC(=O)[C@@H](O)C[C@H]1CCc2sc3ncnc(O[C@H]4CC[C@H](N5CCOCC5)CC4)c3c21  inhibition (enzyme activity, inhibitor; 10 µM): 45%
Cc1cccc(-c2ccc3nc(NC(=O)C4CCOCC4)nn3c2)c1  remaining activity (enzyme activity, Dundee kinase panel; 10 µM): 86%
CNC(=O)C1CCN(c2cc(C)c(F)cc2NC(=O)c2ccc(-c3cc(O)ccc3C)c(C)c2)CC1  remaining binding (binding, competition with immobilised ligand; 1 µM): 32%
COCC12C(=O)NC3C4(C(OC)CC1O)C1CC5(O)C(OC)C(O)C(OC(C)=O)(C1C5OC(=O)c1ccccc1)C3(O)C(OC)C24 (stereo not shown)  remaining activity (kinase activity, inhibitor, ProQinase kinase profiling; 25 µM; baseline: control): 99% and 98%
Cc1ccc(C)c(-c2ccc3nc(NC(=O)C4CCCCC4)nn3c2)c1  remaining activity (enzyme activity, Dundee kinase panel; 10 µM): 92%
CN1CCN(Cc2ccc(NC(=O)c3cccc(C#Cc4cnc(N)c5ncccc45)c3)cc2C(F)(F)F)CC1  remaining binding (cell-free assay, competition with immobilised ligand; 50 nM): 88%
CC(=O)Nc1ccc(-c2ccnc(NCC3CCC3)n2)cc1  remaining binding (cell-free assay, competition with immobilised ligand; 10 µM): 15%
Nc1ncc2c(n1)-c1c([nH]c3ccc(C4=CCOCC4)cc13)CCC2  remaining binding (binding, competition with immobilised ligand; 1 µM): 97%
COc1c(Cl)cccc1Nc1c(-c2ccncc2C#C[C@@]2(C)CCCN2C(=O)/C=C/CN(C)C)[nH]c2c1C(=O)NCC2  remaining binding (cell-free assay, competition with immobilised ligand; 3 µM): 80%

For quick reference, copied from above:
CN1CCN(Cc2ccc(-c3ccc(CO[C@H]4CCC[C@@H]4NC(=O)c4cc(-c5cnn(C)c5)cnc4N)cc3)cc2)CC1  inhibition (enzyme activity, inhibitor; 0.1 µM): 1%
CNC(=O)C[C@H](Cc1ccc(C#N)cc1)NC(=O)c1cc(-c2ccc(CN[C@H](C)c3ccc(C)cc3)o2)ccc1Cl  activity vs control (enzyme activity, inhibitor; 1 µM): 92%
